Experimental data gathered from unrelated publications.
± marks the error that the study gave.
Target: Tyrosine-protein kinase JAK3 (JAK3, Homo sapiens, UniProt P52333)
One construct used (P52333 1-1124): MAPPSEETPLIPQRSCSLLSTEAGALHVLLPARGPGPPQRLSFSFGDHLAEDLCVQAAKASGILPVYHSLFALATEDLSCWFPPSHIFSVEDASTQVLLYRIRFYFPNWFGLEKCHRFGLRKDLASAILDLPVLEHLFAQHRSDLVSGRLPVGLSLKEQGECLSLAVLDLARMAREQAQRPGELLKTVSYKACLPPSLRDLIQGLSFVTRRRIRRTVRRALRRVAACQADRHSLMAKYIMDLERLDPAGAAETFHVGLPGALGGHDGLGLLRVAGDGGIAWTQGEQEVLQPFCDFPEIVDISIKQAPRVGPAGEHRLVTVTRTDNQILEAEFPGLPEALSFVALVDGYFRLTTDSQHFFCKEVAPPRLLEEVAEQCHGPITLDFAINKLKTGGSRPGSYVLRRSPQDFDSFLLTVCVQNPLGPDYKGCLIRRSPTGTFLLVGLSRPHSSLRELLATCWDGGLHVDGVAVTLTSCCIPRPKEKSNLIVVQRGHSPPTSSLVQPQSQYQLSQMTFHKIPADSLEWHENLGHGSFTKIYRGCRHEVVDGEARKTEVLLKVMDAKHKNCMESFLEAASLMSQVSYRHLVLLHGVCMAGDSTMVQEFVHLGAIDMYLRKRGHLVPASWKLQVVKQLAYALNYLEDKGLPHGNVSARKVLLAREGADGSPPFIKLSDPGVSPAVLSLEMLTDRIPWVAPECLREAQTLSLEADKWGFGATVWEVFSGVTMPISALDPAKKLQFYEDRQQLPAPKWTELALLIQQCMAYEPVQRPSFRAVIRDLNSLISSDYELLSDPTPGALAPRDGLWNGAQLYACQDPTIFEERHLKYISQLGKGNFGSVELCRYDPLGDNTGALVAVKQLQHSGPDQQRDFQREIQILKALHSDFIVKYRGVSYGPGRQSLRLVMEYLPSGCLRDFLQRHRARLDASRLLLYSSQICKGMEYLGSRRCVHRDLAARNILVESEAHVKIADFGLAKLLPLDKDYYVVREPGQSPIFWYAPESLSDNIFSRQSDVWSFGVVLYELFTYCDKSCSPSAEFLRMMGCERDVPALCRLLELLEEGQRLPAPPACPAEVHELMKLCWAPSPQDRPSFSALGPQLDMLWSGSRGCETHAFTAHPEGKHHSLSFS

Compound	assay	setting	how to read	quantity	value
COc1cc(F)ccc1-c1ncnc(Nc2cccc(C[S@](C)(=N)=O)c2)n1	kinase activity	10 µM, together with: 10 µM ATP		remaining activity	107%
C=CC(=O)N1CCC[C@@H](n2nc(-c3ccc(Oc4ccccc4)cc3)c3c(N)ncnc32)C1	kinase activity, inhibitor, HotSpot radiometric	100 nM, together with: ATP 10 µM		remaining activity	7.8 ± 0.1%
C=CC(=O)N1CCC(COCC(=O)N2CCN(c3nc(-c4cnc(N)nc4C(F)F)nc(N4CCOC[C@@H]4C)n3)CC2)CC1	KINOMEscan	1 µM		remaining binding	100%
C=CC(=O)N1CCC([C@@H]2CCNc3c(C(N)=O)c(-c4ccc(Oc5ccccc5)cc4)nn32)CC1	kinase activity, inhibitor, HotSpot radiometric	100 nM, together with: ATP 10 µM		remaining activity	97.1 ± 4%
[2H]c1cc(C)c(NC(=O)c2cnc(Nc3cc(N4CCCCC4)nc(C)n3)s2)c(Cl)c1		0.01 µM		inhibition	< 30%
Cc1cc(Nc2cc(N3CCN(C)CC3)nc(Sc3ccc(NC(=O)C4CC4)cc3)n2)[nH]n1	kinase activity, KinaseProfiler	0.03 µM, species human	baseline: control	remaining activity	95%
O=C(NC1CCC1)c1ccc2nc(-c3cccc(NS(=O)(=O)NCCN4CCCCC4)c3)cn2c1	enzyme activity	10 µM		remaining activity	81%
CNc1ncc2c(/C=C/C(=O)N3CCC(OC)CC3)nn(Cc3cccc(C(F)(F)F)c3)c2n1	kinase activity, inhibitor	1 µM	baseline: untreated control	remaining activity	93%
